Experimental data of several laboratories.
Each line is one published result; not all experiments were run side by side. Numbers after ± are the reported error.
Organism: HIV-1

C[C@H]1O[C@H](OC[C@H]2O[C@@H](Oc3c(-c4ccc(O)cc4)oc4cc(O)cc(O)c4c3=O)[C@H](O)[C@@H](O)[C@@H]2O)[C@@H](O)[C@@H](O)[C@@H]1O  IC50 (viral infection; TZM-bl, NL4-3 (CXCR4-tropic); 48 h): > 100000 nM
c1cc(CN2CCCNCCNCCCNCC2)ccc1CN1CCCNCCNCCCNCC1  IC50 (viral replication; MAGI, Ba-L): > 10000 nM
O=C(NCc1c(F)cc(F)cc1F)c1cn2c(c(O)c1=O)C(=O)N1[C@H]3CC[C@H](C3)O[C@@H]1C2  IC50 (viral replication, reverse transcriptase activity; human monocyte-derived macrophages, ADA): 3.75 nM
OC[C@H]1O[C@@H](Oc2cc3c(O)cc(O)cc3[o+]c2-c2ccc(O)c(O)c2)[C@H](O[C@@H]2OC[C@@H](O)[C@H](O)[C@H]2O)[C@@H](O)[C@@H]1O  IC50 (viral infection; TZM-bl, BaL (CCR5-tropic); 48 h): > 100000 nM
COc1ccc(S(=O)(=O)N(CC(C)C)C[C@@H](O)[C@H](Cc2ccccc2)NC(=O)O[C@H]2C[C@@H]3C[C@H]4[C@H](OC[C@H]42)O3)cc1  IC50 (viral replication, antiviral; MT2, LAI): 21 nM
O=c1c(O[C@@H]2O[C@H](CO)[C@@H](O)[C@H](O)[C@H]2O)c(-c2ccc(O)cc2)oc2cc(O)cc(O)c12  IC50 (viral infection; TZM-bl, NL4-3 (CXCR4-tropic); 48 h): > 100000 nM
COc1cnc(-n2cnc(C)n2)c2[nH]cc(C(=O)C(=O)N3CCN(C(=O)c4ccccc4)CC3)c12  IC50 (viral replication, inhibitor, pseudovirus neutralization; TZM-bl, 398-F1_F6_20; 48 h): 372 nM
Nc1ccn([C@H]2CC[C@@H](CO)O2)c(=O)n1  IC50 (viral replication, item: p24; PHA-stimulated PBMC, BaL (CCR5-tropic); 7 days): 11 ± 4 nM
COc1ccnc2[nH]cc(C(=O)C(=O)N3CCN(C(=O)c4ccccc4)C[C@H]3C)c12  IC50 (viral replication, inhibitor, pseudovirus neutralization; TZM-bl, 3718.v3.c11; 48 h): 378 nM
CC(C)CN(C[C@@H](O)[C@H](Cc1ccccc1)NC(=O)O[C@H]1CCOC1)S(=O)(=O)c1ccc(N)cc1  IC50 (viral replication, MTT; MT-2, LAI): 30 nM
